Results from different studies.
Parts stem from different laboratories: compare values within a part only.

Block 1
Target: PABPC1L2, full length, GST fusion (mouse, UniProt A0ABA7IW68)
Technique: RNAcompete
Form: RNA
Medium: in vitro
Concentration: 20 nM
Notes: 7-mer, probes averaged, single round
Reference: mean of 7-mers
Direction: higher = stronger binding
Construct (chain): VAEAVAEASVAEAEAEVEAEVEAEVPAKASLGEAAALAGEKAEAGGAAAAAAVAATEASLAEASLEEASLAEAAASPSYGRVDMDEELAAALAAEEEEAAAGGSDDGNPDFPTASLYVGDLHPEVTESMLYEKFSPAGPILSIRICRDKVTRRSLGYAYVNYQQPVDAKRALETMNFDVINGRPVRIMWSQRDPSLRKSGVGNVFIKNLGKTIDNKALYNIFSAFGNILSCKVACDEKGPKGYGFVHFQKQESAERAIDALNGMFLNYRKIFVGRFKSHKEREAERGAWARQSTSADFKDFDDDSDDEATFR
`AGCGUGG` gave a 7-mer Z-score of 0.155.
The 7-mer Z-score of `CCCCCAG` is reported as -0.374.
`GCACAUC` gave a 7-mer Z-score of -0.155.
With `CUAGACC` the 7-mer Z-score was -0.021.
With `AUUCUCG` the 7-mer Z-score was -0.271.
The 7-mer Z-score of `AGACCUG` is reported as -0.325.

Block 2
Target: Histone acetyltransferase KAT6A, both winged helices, GST fusion (KAT6A, Homo sapiens, UniProt Q92794, residues 1-181)
Technique: protein binding microarray
Form: double-stranded DNA, one strand shown
Medium: in vitro
Concentration: not given
Notes: 8-mer, flanks averaged, mean of 2 arrays, mostly near background
Reference: not given
Direction: higher = stronger binding
Residues (chain): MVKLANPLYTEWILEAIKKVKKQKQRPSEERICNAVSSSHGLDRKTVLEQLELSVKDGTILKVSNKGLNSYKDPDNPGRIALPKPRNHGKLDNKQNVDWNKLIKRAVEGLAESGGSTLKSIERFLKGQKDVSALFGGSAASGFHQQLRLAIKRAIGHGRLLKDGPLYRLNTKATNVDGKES
The E-score of `GAATTAAA` is reported as -0.0289.
With `GCCTCGCA` the E-score was 0.00356.
With `CGGCTGGC` the E-score was 0.119.
For `ATCTCCAC`, the E-score was -0.07.
With `ACCGCTTC` the E-score was 0.131.
`AGCCACAC` gave an E-score of -0.111.

Block 3
Target: Ras GTPase-activating protein-binding protein 1, full length (G3BP1, Homo sapiens, UniProt Q13283)
UniProt Q13283, sequence (whole entry, looked up): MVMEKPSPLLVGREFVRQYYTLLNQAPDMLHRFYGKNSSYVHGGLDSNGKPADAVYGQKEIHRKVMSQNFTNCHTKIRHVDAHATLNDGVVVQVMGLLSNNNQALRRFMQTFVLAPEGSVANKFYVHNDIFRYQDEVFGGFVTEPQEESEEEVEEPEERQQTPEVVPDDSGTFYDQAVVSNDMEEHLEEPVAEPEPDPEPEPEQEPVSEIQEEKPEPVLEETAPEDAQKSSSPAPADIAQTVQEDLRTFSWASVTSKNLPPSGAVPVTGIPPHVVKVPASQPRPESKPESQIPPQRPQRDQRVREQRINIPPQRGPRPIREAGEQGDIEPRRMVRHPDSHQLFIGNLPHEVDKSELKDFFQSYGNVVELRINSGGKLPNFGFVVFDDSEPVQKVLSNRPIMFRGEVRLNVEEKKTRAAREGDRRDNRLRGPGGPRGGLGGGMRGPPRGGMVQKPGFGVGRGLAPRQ
Technique: RNA Bind-n-Seq
Form: RNA
Medium: in vitro
Concentration: 200 nM
Notes: whole 134-nt RNA, ends assumed
With: 150 mM LiCl
Reference: input library
Direction: higher = stronger binding
All molecules: 7-deaza-guanosine replaces G
For `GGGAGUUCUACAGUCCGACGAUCCAUAGACAACACGCACCCACACAGACACAGAGGGAAGGGGUUGGGAUGGGGACAGGGUGCACAGCAGGGCGGGGUAGGACCCCAGCCCCUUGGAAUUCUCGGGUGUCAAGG`, the log2 enrichment was 0.534.
`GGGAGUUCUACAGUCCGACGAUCUGGCCCUGGUGGCAUGCGGGUAGGAAGAGGUGGCCUCAUGGAUCGUGGUGGUCCCGGUGGAAUGUUCAGAGGUGGCCGUGGUGGAGACAGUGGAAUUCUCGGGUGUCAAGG` has a log2 enrichment of 0.343.
`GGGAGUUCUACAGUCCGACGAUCCUGUGCUACACAUCGUAUGUACCGAAUCGGGGUUUUUGGGGUUUUUUUGGGGAAAAAGGGGAAAGUAUUAUGUUACGCCGUUCGGAUCUGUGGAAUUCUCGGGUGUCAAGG` gave a log2 enrichment of 0.685.
`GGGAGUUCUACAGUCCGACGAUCUCCUGUGCUACACAUCGUAUGUACCGAAUCGGGAAAGGGAAAAAAAGGGAAAAAAAGGGAAAGUAUUAUGUUACGCCGUUCGGAUCUGCAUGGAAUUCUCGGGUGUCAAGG` gave a log2 enrichment of 0.536.
With `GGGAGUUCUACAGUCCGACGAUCUCCUCAAGUCCUGUGCUACACAUCGUAUGUACCGAAUCGUGUGUGUGUGUGUAAAGUAUUAUGUUACGCCGUUCGGAUCUGCACUUCCAGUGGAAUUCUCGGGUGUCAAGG` the log2 enrichment was 0.723.

Further values, each from its own experiment
`PhoQ, residues 284 288 289 292 302 303 TSTLRA` has a fold induction of 4.3 (PhoP, residues 12 14 15 18 19 VHTVL (Escherichia coli, UniProt P23836); Sort-seq, item: YFP reporter; E. coli; PhoQ-PhoP variant library, with: 10 µM Mg2+; reference: high Mg2+ state, higher = stronger signaling).

Some of these lines once more (block 1):
With `AUUCUCG` the 7-mer Z-score was -0.271.
